Published values from different studies.
Compare with care: the assays were run in different laboratories. ± marks the error that the study gave.
Chain of UniProt O14976 (whole entry, looked up): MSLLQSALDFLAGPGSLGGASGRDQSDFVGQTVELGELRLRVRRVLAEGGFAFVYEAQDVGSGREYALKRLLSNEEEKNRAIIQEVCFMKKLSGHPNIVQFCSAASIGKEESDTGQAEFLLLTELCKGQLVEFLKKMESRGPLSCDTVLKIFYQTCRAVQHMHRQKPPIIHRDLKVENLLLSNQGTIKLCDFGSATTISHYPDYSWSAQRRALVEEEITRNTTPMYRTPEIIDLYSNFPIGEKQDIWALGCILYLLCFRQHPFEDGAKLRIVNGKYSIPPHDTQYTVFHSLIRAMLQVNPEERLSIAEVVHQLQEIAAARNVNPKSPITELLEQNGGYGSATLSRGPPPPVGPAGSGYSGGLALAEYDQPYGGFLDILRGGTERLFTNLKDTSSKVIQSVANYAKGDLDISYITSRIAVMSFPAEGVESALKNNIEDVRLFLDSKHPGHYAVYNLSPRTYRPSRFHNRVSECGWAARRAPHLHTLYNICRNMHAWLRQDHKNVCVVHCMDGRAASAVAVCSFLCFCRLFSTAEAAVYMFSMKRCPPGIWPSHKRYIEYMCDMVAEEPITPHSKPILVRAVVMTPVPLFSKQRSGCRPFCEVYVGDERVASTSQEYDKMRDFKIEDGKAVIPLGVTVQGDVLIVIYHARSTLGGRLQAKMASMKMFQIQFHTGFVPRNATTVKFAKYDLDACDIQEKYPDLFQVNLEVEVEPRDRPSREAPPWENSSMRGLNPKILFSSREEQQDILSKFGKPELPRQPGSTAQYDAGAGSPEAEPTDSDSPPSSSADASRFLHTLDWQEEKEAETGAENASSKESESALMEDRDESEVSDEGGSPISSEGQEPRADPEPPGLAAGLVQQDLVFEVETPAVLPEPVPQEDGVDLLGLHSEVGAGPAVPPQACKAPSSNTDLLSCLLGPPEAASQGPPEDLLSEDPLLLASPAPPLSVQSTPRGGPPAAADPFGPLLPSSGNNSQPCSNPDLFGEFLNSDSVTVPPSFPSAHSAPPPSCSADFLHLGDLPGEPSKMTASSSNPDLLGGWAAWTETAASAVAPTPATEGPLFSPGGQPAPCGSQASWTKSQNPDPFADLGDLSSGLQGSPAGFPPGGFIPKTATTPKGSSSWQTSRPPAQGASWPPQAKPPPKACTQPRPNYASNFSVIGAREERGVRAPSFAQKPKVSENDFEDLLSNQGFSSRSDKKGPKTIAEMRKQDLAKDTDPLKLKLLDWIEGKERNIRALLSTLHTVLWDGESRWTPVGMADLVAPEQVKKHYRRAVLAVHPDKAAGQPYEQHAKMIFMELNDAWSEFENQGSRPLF
Chain of UniProt P08183 (whole entry, looked up): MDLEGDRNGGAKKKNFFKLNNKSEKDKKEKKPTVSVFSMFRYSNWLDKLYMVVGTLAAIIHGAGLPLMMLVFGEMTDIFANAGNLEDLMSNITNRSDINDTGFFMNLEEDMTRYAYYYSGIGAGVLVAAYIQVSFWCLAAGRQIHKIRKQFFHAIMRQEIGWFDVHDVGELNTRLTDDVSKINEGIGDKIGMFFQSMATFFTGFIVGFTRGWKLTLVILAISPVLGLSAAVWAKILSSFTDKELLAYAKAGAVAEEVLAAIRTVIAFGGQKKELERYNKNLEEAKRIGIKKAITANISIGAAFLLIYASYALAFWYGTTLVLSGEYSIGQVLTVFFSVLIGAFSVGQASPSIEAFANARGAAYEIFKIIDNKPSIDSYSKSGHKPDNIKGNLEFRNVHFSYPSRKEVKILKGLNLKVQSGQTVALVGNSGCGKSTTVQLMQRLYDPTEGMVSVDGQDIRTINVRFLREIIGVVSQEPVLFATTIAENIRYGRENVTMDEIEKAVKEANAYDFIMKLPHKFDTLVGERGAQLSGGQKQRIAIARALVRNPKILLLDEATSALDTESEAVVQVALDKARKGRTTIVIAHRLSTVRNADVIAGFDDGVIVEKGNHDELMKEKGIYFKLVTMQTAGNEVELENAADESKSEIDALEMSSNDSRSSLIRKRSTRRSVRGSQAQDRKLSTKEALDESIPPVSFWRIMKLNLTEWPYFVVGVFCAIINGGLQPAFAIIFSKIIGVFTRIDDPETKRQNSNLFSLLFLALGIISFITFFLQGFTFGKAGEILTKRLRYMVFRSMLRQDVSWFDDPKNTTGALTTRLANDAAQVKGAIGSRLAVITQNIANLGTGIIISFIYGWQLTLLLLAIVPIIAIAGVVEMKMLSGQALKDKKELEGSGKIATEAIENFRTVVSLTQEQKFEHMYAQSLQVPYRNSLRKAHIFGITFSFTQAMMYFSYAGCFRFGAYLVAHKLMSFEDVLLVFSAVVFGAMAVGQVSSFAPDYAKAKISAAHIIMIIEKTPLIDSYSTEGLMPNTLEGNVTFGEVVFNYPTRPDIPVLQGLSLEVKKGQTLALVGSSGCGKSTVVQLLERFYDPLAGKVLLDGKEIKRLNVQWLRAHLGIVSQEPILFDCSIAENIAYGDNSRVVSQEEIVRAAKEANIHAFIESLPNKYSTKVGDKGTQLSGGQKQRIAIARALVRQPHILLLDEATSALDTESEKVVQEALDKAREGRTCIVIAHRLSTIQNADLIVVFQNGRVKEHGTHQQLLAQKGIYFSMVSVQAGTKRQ

For `CCCCC1=NC2(CCCC2)C(=O)N1Cc1ccc(-c2ccccc2S(=O)(=O)Nc2noc(C)c2C)c(COCC)c1`, the AUC(0-inf) was 71600 ng·h/mL (healthy adult volunteers, plasma; oral, 400 mg, single dose, fed, crushed tablet).
`CCn1cc(C(=O)N2CCOCC2)c(=O)c2cc(NC3Cc4ccccc4C3)cnc21` has a Tmax of 6 h (human, fed; oral suspension, 2000 mg single dose, median).
With `COc1ccccc1NC(=O)CSc1nnc(-c2ccccc2Cl)n1-c1ccccc1` the logD was 3.97 (octanol/buffer; pH 7.4).
`C=CC(=O)NC1CCN(c2ncc3ncnc(Nc4ccc(Oc5ccc6c(c5)ncn6C)c(C)c4)c3n2)CC1`: “estimated fraction absorbed” greater than 85% (healthy male volunteers; oral, 60 mg).
The logD of `CCOC(=O)N1C[C@@H](C2CCCC2)N[C@@H](c2ccc(-c3ccccc3)cc2)C1` is reported as greater than 4.7 (shake-flask, 1-octanol/buffer; pH 7.4).
The cytotoxicity of `Cc1cc(C(=O)NC(C)(C)COc2cccc3c2C(N)=NS(=O)(=O)N3)cc(C)n1` is reported as 3% (human peripheral blood lymphocytes; CBPI, preliminary test; 0.2 µg/mL, 4 h; reference: vehicle control).
`O=C(O)CCC(=O)O.[2H]C([2H])([2H])Oc1cc(C)c2[nH]ccc2c1CN1CC[C@@H](C2CC2)C[C@H]1c1ccc(C(=O)O)cc1`: “subjects with sinus bradycardia TEAE” 0% (multiple ascending dose; healthy Chinese subjects; 100 mg twice daily).
With `C[C@@H](NC(=O)N1C(=O)[C@H](Cc2ccnc(N)c2)[C@H]1C(=O)O)C1CCCCC1` the CL was 5.4 mL/min/kg (UPLC-MS/MS; healthy adult Chinese volunteers, plasma; continuous intravenous infusion, 1.5 mg/kg/h, day 6 of 5-day infusion, mean).
`c1coc(Nc2ncnc3ccc(-c4cncc(N5CCOCC5)n4)cc23)n1` has a CLint of 300 µL/min/mg (human liver microsomes).
`C[C@@H](O)[C@H](NC(=O)c1ccc(-c2ccccc2)cc1)C(=O)NCC1(C)NC(=O)NC1=O` (stereo partly drawn) has a logD of 1.82 (octanol/buffer; pH 7.4).
`CC(C)(C(=O)N1CCOc2c(C#N)cncc2C1)C(F)F` — result for “subjects with adverse event”: 12.5% (refers to: upper abdominal pain; human; oral, 10 mg once daily, 14 days, multiple ascending dose).
`CC[C@@H]1CN(C(=O)NCC(F)(F)F)C[C@@H]1c1cnc2cnc3[nH]ccc3n12`: “absorption rate constant (Ka)” 0.0523 h⁻¹ (population PK modelling; human; oral, extended-release formulation, outliers excluded).
For `CC(C)c1c(C(=O)Nc2ccccc2O)c(-c2ccccc2)c(-c2ccc(F)cc2)n1CCC(O)CC(O)CC(=O)O` (stereo not drawn), “chromatographic hydrophobicity index” read 94.9 (reverse phase LC, C18; acetonitrile gradient, 0.1% formic acid; converted from retention time; reference: Valko CHI standards).
With `O=C(O)CCCOc1ccc([18F])cc1-c1cc(-c2ccccc2C(F)(F)F)n(-c2ccccc2)n1` the radioactivity uptake was 0.19 ± 0.01 SUV (gamma counting; male ddY mice, brain; intravenous, 2.1 MBq, 5 min).
The tissue uptake of `C[C@H](NC(=O)[C@H](CCC(N)=O)NC(=O)[C@H](C)NC(=O)[C@H](CCCNC(=N)N)NC(=O)[C@H](CCC(N)=O)NC(=O)[C@H](C)NC(=O)[C@H](CCCNC(=N)N)NC(=O)[C@H](CCC(N)=O)NC(=O)[C@H](C)NC(=O)[C@H](CCC(N)=O)NC(=O)[C@H](CCCNC(=N)N)NC(=O)[C@H](C)NC(=O)[C@H](CCC(N)=O)NC(=O)[C@H](CCCNC(=N)N)NC(=O)[C@H](C)NC(=O)[C@H](CCC(N)=O)NC(=O)[C@H](C)NC(=O)[C@H](CCCNC(=N)N)NC(=O)[C@H](CCC(N)=O)NC(=O)[C@H](C)NC(=O)[C@H](CCCNC(=N)N)NC(=O)[C@H](CO)NC(=O)[C@H](Cc1ccc(O)c(I)c1)NC(=O)CNC(=O)CNC(=O)CN)C(=O)N[C@@H](CCCNC(=N)N)C(=O)N[C@@H](CCC(N)=O)C(=O)N[C@@H](C)C(=O)N[C@@H](CCCNC(=N)N)C(=O)N[C@@H](CCC(N)=O)C(=O)O` [iodine-125 labelled] is reported as 12.5 %ID/g (H2-Ld-huIL-6 Tg Balb/c mice, AA amyloidosis, spleen; intravenous, 4 h, decay-corrected).
For `c1ccc(CN2CCCN3CCN(Cc4ccccc4)CCCN(CC2)Cc2cccc(n2)C3)cc1`, the intact complex was 99% (64Cu complex; 2 h, pH 7.4, 37 °C, added: DOTA excess).
`CCc1cc(C(=O)NC)c2nccc(N3CCc4c(cc(Cn5ccnc5)cc4-c4cn(C)nc4C(F)(F)F)C3=O)c2c1`: “serum RDW change” -8.07% (Sprague Dawley rats; oral, 100 mg/kg twice daily, 7 days; reference: vehicle).
For `Cc1cc(-c2nccc3c2ccn3CC(=O)Nc2ccc(-c3cnccn3)cn2)ccn1`, “subjects with any IMP-related TEAE” read 16.7% (human; SAD part, single 7 mg dose).
`CCN1/C(=C/C(C)=O)Sc2ccc(F)cc21` — result for “systolic blood pressure”: 111 ± 8 mmHg (cynomolgus monkey; oral, 30 mg/kg, 4 h post-dose).
`FC(F)(F)c1ccc(CNc2ccc(Cc3c[nH]c4ncc(Cl)cc34)cn2)cn1` — result for “adverse events, any”: 100% (patients with advanced solid tumours; oral, dose not given, phase Ib, all relationships).
`CC[C@H](C)[C@H](NC(=O)[C@H](Cc1ccccc1)NC(=O)[C@H](CCC(=O)O)NC(=O)[C@H](CCCCNC(=O)COCCOCCNC(=O)COCCOCCNC(=O)CC[C@H](NC(=O)CCCCCCCCCCCCCCCCC(=O)O)C(=O)O)NC(=O)[C@H](C)NC(=O)[C@H](C)NC(=O)[C@H](CCC(N)=O)NC(=O)CNC(=O)[C@H](CCC(=O)O)NC(=O)[C@H](CC(C)C)NC(=O)[C@H](Cc1ccc(O)cc1)NC(=O)[C@H](CO)NC(=O)[C@H](CO)NC(=O)[C@@H](NC(=O)[C@H](CC(=O)O)NC(=O)[C@H](CO)NC(=O)[C@@H](NC(=O)[C@H](Cc1ccccc1)NC(=O)[C@@H](NC(=O)CNC(=O)[C@H](CCC(=O)O)NC(=O)C(C)(C)NC(=O)[C@@H](N)Cc1cnc[nH]1)[C@@H](C)O)[C@@H](C)O)C(C)C)C(=O)N[C@@H](C)C(=O)N[C@@H](Cc1c[nH]c2ccccc12)C(=O)N[C@@H](CC(C)C)C(=O)N[C@H](C(=O)N[C@@H](CCCNC(=N)N)C(=O)NCC(=O)N[C@@H](CCCNC(=N)N)C(=O)NCC(=O)O)C(C)C`: “QTcF change from baseline” -2.5 ms (12-lead Holter ECG; healthy humans; subcutaneous, 1.5 mg once weekly, 36 h, steady state; reference: placebo).
`CC(C)Nc1ccnc(Nc2cccc(-c3cccnc3)c2)n1` has an efflux ratio of 0.68 (MDCKII-WT cells; 10 µM, pH 7.4; reference: Papp B-A over A-B).
`CO[C@@H]1[C@H](OC(=O)N2CC(CCN3CCOCC3)C2)CC[C@]2(CO2)[C@H]1[C@@]1(C)O[C@@H]1CC=C(C)C`: “diastolic blood pressure” -3.4 ± 6.4 mmHg (humans; subcutaneous, 0.2 mg twice weekly for 4 weeks, day 28; reference: baseline).
`O=[N+]([O-])c1cc2c3ccccc3ccc2c2ccccc12`: “tumours per rat” 0.17 ± 0.65 (refers to: adenoma mammary tumours; female Sprague-Dawley rats; intramammary, 12.3 µmol per rat, up to 32 weeks).
`C=CC(=O)Nc1cc(Nc2nccc(-c3cn(C4CC4)c4ccccc34)n2)c(OC)cc1N(C)CCN(C)C` gave an MCH of 15.3 ± 0.175 pg (BALB/c nude mice, LU0387 xenograft, blood; oral, 40 mg/kg).
`Nc1cc(F)ccc1NC(=O)c1ccc(CNC(=O)/C=C/c2cccnc2)cc1` gave a logD of 0.12 (octanol/buffer; pH 7.4).
`C=CC(=O)N(C)CCOc1c(N)ncnc1-c1cc(F)cc(NC(=O)c2ccc(C3CC3)cc2F)c1C` gave an AUC of 977 ng·h/mL (human, whole blood; oral, 400 mg once daily, day 1).
For `COc1ncc(-c2nc3c(n2C(C)C)[C@H](c2ccc(Cl)cc2)N(c2cc(Cl)cn(C)c2=O)C3=O)c(OC)n1`, “AUC(0-t) geometric mean” read 11700 ng·h/mL (human patients, plasma; oral, 100 mg, 0-24 h, high-dose arm, cycle 2 day 1).
Under “numerical aberration cells”, `c1csc(CNc2cc[nH]n2)c1` is recorded as 0.5% (human peripheral blood lymphocytes; 1130 µg/mL, 4 h).
`CC[C@H]1[C@@H](O)[C@@H]2[C@H](CC[C@]3(C)[C@@H]([C@H](C)CCNC(=O)NS(=O)(=O)c4ccc(C(C)(C)C)cc4)CC[C@@H]23)[C@@]2(C)CC[C@@H](O)C[C@@H]12` has a half-life of 10.6 h (ABCB1 (Homo sapiens, UniProt P08183); human, plasma; dose not given, geometric mean, alone).
`CCCCCN1C[C@H](O)[C@@H](O)[C@H](O)[C@@H]1CO`: “geometric mean brain concentration” 268 ng/g (LC-MS/MS; Hexb-/- mice, female, brain; 300 mg/kg/day).
`C[C@H]1CNCCCN1S(=O)(=O)c1cccc2cncc(F)c12` — result for “subjects with conjunctival hyperaemia”: 100% (healthy adult men; ocular, 1 drop per eye twice daily, 8 days, adverse event).
With `Cc1ccc(N(C)C(=O)/C=C/c2ccco2)cc1` the licking latency was 14.9 ± 0.6 s (hot plate test; mice; oral, 30 mg/kg single, 45 min).
For `CC1(C)CN(CCCCC(=O)N[C@@H](CCC(=O)O)C(=O)N[C@@H](CCC(=O)O)C(=O)N[C@H](CCCCNC(=O)CCCCCCC(=O)NCCCC[C@H](NC(=O)N[C@@H](CCC(=O)O)C(=O)O)C(=O)O)C(=O)O)CC[N]2CC(C)(C)[S][Tc]2(=[O])[S]1` (stereo partly drawn) [technetium-99m labelled], the intact radioligand was 93.2% (radio-HPLC; saline; 4 h, 25 °C).
Under “participants with drug-related TEAE”, `CCn1c(=O)c(-c2cc(NC(=O)Nc3ccccc3)c(F)cc2Br)cc2cnc(NC)cc21` is recorded as 50% (refers to: lipase increased; healthy human, matched to mild hepatic impairment; oral, 50 mg single dose).
`OCc1nc2ccc(NCc3ccc(C(F)(F)F)cc3)cc2[nH]1` gave a tissue concentration of 21.8 ± 6 ng/g (Balb/c mouse, male, lungs; intravenous, 1 mg/kg, 6 h).
`C=CC(=O)N1CCC([C@@H]2CCNc3c(C(N)=O)c(-c4ccc(Oc5ccccc5)cc4)nn32)CC1` — result for “stability relative error”: -6.4% (rat plasma; 2 ng/mL, 21 days, -80 °C; reference: nominal concentration).
The logD of `CCC(CC)[C@H]1COC[C@@H](c2ccc(C(C)(C)C)cc2)N1` is reported as greater than 4.7 (shake-flask, 1-octanol/buffer; pH 7.4).
With `C=CCn1c(=O)c2cnc(Nc3ccc(N4CCN(C)CC4)cc3)nc2n1-c1ccc2c(n1)[C@@](O)(CC)CC2` the AUC(0-24) was 41900 ng·h/mL (female NOD/SCID mouse OVCAR-3 xenograft, plasma; oral, 100 mg/kg once daily, :4).
Under “total testosterone level”, `N#Cc1ccc2c(c1)[C@H]1CCCN(C(=O)c3ccc4[nH]cnc4c3)[C@H]1C2` is recorded as 1.2 nmol/L (human females; 40 mg, day 15).
For `CN(CCC(=O)O)C(=O)c1ccc2c(c1)CC[C@@H]1[C@@H]2CC[C@]2(C)C(c3cncc(F)c3)=CC[C@@H]12`, “direct bilirubin change” read 0.15 mg/dL (premenopausal women with endometriosis pain, serum; 60 mg twice daily, end of treatment, completers, median; reference: baseline).
`CCC(=O)N(CCC(c1ccc2c(c1)OCO2)c1ccccc1OC)Cc1ccccc1` (stereo not drawn) has a CREA of 0.193 mg/dL (female athymic nude mouse, blood; i.p., 60 mg/kg twice daily, 14 days, group mean).
With `CCOC(=O)N1C[C@@H](c2ccc(C(C)(C)C)cc2)N[C@@H](c2ccc(N3CCCC3)cc2)C1` the logD was greater than 4.7 (shake-flask, 1-octanol/buffer; pH 7.4).
`NC(N)=NCCC[C@@H](N)C(=O)N[C@@H](CCCN=C(N)N)C(=O)N1CCC[C@H]1C(=O)N1C[C@H](O)C[C@H]1C(=O)NCC(=O)N[C@@H](Cc1cccs1)C(=O)N[C@@H](CO)C(=O)N1Cc2ccccc2C[C@@H]1C(=O)N1[C@H](C(=O)N[C@@H](CCCN=C(N)N)C(=O)O)C[C@@H]2CCCC[C@@H]21`: “absorption rate constant (ka)” 3.27 h⁻¹ (popPK full model estimate; human; subcutaneous).
With `C=CCN1CC(=O)N2[C@@H](Cc3ccc(O)cc3F)C(=O)N(Cc3cccc(N4CC(N5CCN(CC)CC5)C4)n3)C[C@@H]2N1C(=O)NCc1ccccc1` the treatment-related diarrhoea was 0% (advanced solid tumour patients; oral, 10 mg twice daily, any grade, dose-escalation).
`CC[C@@H]1[C@H](F)C(=O)N[C@@H]1COc1nccc2cc(C(N)=O)c(OC)cc12` gave an inhibition of -10% (GAK (Homo sapiens, UniProt O14976); ATP-site probe binding, ActivX profiling; THP-1 cell lysate; 0.2 mM, Lys2 site).
For `O=C(CSc1nnc(-c2ccncc2)o1)Nc1ccc(F)cc1`, the logD was 1.9 (octanol/buffer; pH 7.4).
`CNCCOC12CC3(C)CC(C)(CC(Cn4ncc(-c5ccc(N6CCc7cccc(C(=O)Nc8nc9ccccc9s8)c7C6)nc5C(=O)O)c4C)(C3)C1)C2` — result for “heart rate change”: -1% (beagle dog, male, anaesthetised; intravenous bolus, 0.03 mg/kg, 150 min; reference: baseline).
